Measurements collected from several papers.
A part holds a random share of what one study measured. Substitutions count along the parent as printed.

Sample 1
Target: RNA binding protein fox-1 homolog 2, RRM domain, GST-SBP tag (RBFOX2, Homo sapiens, UniProt O43251-10, residues 100-194)
Technique: RNA Bind-n-Seq
Molecule type: RNA
Medium: in vitro
Tested at: 365 nM
Setting: natural RNA segment, single round, ends assumed
Baseline: no-protein control
Reading: higher = stronger binding
All sequences stand within: GGGAGUUCUACAGUCCGACGAUC … UGGAAUUCUCGGGUGCCAA
Target sequence (chain): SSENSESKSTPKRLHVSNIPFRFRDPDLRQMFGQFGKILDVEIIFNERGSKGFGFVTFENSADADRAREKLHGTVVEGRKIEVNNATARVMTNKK
Under “RBNS enrichment (R)”, `UCUAGCUUUCUCACAGAAUGAGGACACUGGACUAAAUGAUUGCCCAGUUUCCAGCUAGUCCUAGAGUUCUAUAUUUCUACAUAGUUGAAUUAUUUUAUCAUGCGGUUGCU` is recorded as 0.825.
`AGCGGAUCCUGCGGCUCUCGCUGACCGAACAGUAGCGCCUCCUGCUGGGACCCUCGCCCACUCCACGCAGGACCCGGGUCUGCGCACCUGCCGAGCGGCUGCUGGAGUCU` — result for “RBNS enrichment (R)”: 0.289.
`UGCUGUCCUCAAAGUAUAUAAUGUUUCUCAUAUGUACCAAGACCAUUUUCACAAUAAACAGAUCUGUUCAUACAUUUUUGUUAUUUUAUAAAUAAAUUACUUAAUUUUAG`: “RBNS enrichment (R)” 0.554.
`ACCCUGGCUCAAGUUCCAGCACUGGAAAGACCAAAGUGCAAACGUGCAUGGGAGGAGUGAGGGUAACAGAGGCCAUGGCGUACGUCUUCCUUUGCAGCUAGGGAAAGAGA` — result for “RBNS enrichment (R)”: 1.3.
For `CAUCACCUUUGCCCUGCUCUGGGGGACAGACAUGACAGUAAAAGUGUCCCGGGACUCUUUCCGUUCAUUGUUUGCUUUUUUGGCAACUAGGAGGUUGGCACUAAGACCCA`, “RBNS enrichment (R)” read 0.239.
Under “RBNS enrichment (R)”, `GAGGUUGGUUUGGGGACCAACCAAGCUACCAACCUUAAGGGUAACUUGGUCUCGAUUUAGGAGCCUGGAAAUACUCCGUUAUACAAGUUUGUGCUUUCUUUCUUUCUUUC` is recorded as 0.989.
For `AGUGUGUGGGACUUGGUCACUCCAUGUCAGACACACGAGCAGAGAGGAACACAAACCACUGUGGAGCCUGAAGCUCCUUAAGAAGAGUCCACAACAGCUGGUGGGAGGGU`, “RBNS enrichment (R)” read 0.748.
`GCCCCAGCAGGGCACCGUGUGUGUGAGUGUGGUUUGGUGCUGUUUUGGAGUGUGCCUGCCCCCCAGCCUGGAACCCUCUGAUCAACUUGCUGGGACCUAUAACGUCUUAG` — result for “RBNS enrichment (R)”: 0.735.

Sample 2
Target: CCNF, cyclin fold, Cln2 fusion (human)
Technique: yeast growth competition, sequencing
Medium: yeast
Setting: strong parent motif
Baseline: not given
Reading: higher = stronger binding
Parent: BRCA2 docking peptide (human); PSIKRNLLNEFDR
For `PSIKRNNLNEFDR [L7N]`, “normalised enrichment score” read -0.436.
`PSIKRNLLNEKDR [F11K]` — result for “normalised enrichment score”: 0.454.
`WSIKRNLLNEFDR [P1W]`: “normalised enrichment score” 4.15.

Sample 3
Target: Interferon regulatory factor 7, full length, phosphomimetic (IRF7, Homo sapiens, UniProt Q92985, residues 1-503, S101K/S471D/S472D/S475D/S476D/S477D/S483D/S484D/S487D)
Technique: protein-binding microarray
Molecule type: double-stranded DNA, one strand shown
Medium: in vitro
Tested at: 250 nM
Setting: 60-bp whole probe
With: salmon DNA 0.4 mg/ml
Baseline: random background probes
Reading: higher = stronger binding
All sequences stand within: GCCTAGCAC … GTCTTGATTCGCTTGACGCTGCTG
Target sequence (chain): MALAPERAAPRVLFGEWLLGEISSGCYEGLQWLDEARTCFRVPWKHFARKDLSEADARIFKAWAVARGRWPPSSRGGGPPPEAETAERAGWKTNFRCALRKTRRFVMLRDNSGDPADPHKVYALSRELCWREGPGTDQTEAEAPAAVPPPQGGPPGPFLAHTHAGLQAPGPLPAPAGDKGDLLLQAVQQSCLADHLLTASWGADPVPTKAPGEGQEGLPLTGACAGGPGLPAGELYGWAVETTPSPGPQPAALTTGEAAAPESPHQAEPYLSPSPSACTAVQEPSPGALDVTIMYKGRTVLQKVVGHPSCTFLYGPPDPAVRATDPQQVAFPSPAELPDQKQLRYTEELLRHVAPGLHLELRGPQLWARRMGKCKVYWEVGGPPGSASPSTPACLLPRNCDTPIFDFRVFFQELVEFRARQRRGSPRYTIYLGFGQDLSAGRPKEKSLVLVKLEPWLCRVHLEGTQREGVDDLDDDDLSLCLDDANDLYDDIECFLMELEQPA
`GACGGTTTCTGTCTCGGGACGTGCTAG` gave a log fluorescence of 2.12 z-score.
With `TTAGGTTCCGGTTTCCGTTAGTGCTAG` the log fluorescence was 8.46 z-score.
`TTACAATTTGCTTTAGTCATGTGCTAG` gave a log fluorescence of -0.0116 z-score.
For `TTAGGTATCGTCTATCGGTTAGTGCTA`, the log fluorescence was 0.113 z-score.
`TGTAGTGTGTGTCTGATTATGTGCTAG` has a log fluorescence of -0.351 z-score.
The log fluorescence of `TTAGTTCTCCTTTTCCTTTAGTGCTAG` is reported as 2.39 z-score.

Other studies, line by line
`PhoQ, residues 284 288 289 292 302 303 SVHLDV` has a fold induction of 7.35 (PhoP, residues 12 14 15 18 19 TPWLV (Escherichia coli, UniProt P23836); Sort-seq, item: YFP reporter; E. coli; PhoQ-PhoP variant library, with: 10 µM Mg2+; baseline: high Mg2+ state, higher = stronger signaling).
